Measured values gathered from unrelated publications.
A part holds a random share of what one study measured.

Sample 1 — technique: protein-binding microarray; molecule type: double-stranded DNA, one strand shown; sample: in vitro; tested at: 250 nM; setting: 60-bp whole probe; together with: salmon DNA 0.4 mg/ml; reference: random background probes; direction: higher = stronger binding; quantity: log fluorescence; constant ends, left off below: GCCTAGCAC … GTCTTGATTCGCTTGACGCTGCTG
Target: Interferon regulatory factor 7, full length, phosphomimetic (IRF7, Homo sapiens, UniProt Q92985, residues 1-503, S101K/S471D/S472D/S475D/S476D/S477D/S483D/S484D/S487D)
Target sequence (chain): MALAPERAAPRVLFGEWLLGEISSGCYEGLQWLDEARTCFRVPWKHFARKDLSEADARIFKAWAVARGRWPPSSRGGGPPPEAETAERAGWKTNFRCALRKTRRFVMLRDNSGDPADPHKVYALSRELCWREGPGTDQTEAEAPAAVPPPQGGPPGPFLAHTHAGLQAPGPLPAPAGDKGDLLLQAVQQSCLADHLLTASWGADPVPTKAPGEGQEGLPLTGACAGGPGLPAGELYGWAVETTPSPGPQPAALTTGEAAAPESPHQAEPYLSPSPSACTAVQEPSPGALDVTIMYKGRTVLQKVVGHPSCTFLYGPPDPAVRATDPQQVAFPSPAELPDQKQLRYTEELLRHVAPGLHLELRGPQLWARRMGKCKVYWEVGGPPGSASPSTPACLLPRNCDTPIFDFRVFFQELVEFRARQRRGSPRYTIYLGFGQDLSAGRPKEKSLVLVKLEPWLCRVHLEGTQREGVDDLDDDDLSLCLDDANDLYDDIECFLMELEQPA
TTAGATTTCAGTTTCGATTCGTGCTAG: 12.8 z-score
CCCTAGTTGTGTCTTGCCATGTGCTAG: 0.452 z-score
TCATCTCTTGTTCTCTCACTGTGCTAG: 0.87 z-score
TTGCGTCTGGGTGTTTTCTAGTGCTAG: -0.944 z-score
GACGATATCAGTTTCGAAACGTGCTAG: 6.15 z-score
TTAGGTATCGGGTATCGTTTAGTGCTA: 1.89 z-score
TTAGATATCGGGTATCGATTAGTGCTA: 0.522 z-score
CGAGTTTCCATTTTCTGAATGTGCTAG: 8.88 z-score

Sample 2 — technique: protein binding microarray; molecule type: double-stranded DNA, one strand shown; sample: in vitro; tested at: not given; reference: not given; direction: higher = stronger binding; quantity: E-score
Target: Histone acetyltransferase KAT6A, winged helix 2, GST fusion (KAT6A, Homo sapiens, UniProt Q92794, residues 85-181)
Setting: 8-mer, flanks averaged, mean of 2 arrays, mostly near background
Target sequence (chain): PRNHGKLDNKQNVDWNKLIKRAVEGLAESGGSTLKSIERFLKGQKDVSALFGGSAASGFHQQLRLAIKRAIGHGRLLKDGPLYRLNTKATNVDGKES
AATTGTTA: -0.00305
CTAAAAAG: 0.11
GCGCAGCC: 0.28
AGTTGACC: 0.0684
ATGACACG: 0.0118
CCGCCTGC: 0.193
CTCCAAGC: 0.00152
CGAGTGAC: 0.0231

Sample 3 — technique: universal PBM; molecule type: double-stranded DNA, one strand shown; sample: in vitro; tested at: not given; direction: higher = stronger binding; quantity: E-score
Target: Sal-like protein 4, full length isoform B (SALL4, Homo sapiens, UniProt Q9UJQ4-2, residues 1-616)
Setting: 8-mer, flanks averaged, mean of replicates
Construct (chain): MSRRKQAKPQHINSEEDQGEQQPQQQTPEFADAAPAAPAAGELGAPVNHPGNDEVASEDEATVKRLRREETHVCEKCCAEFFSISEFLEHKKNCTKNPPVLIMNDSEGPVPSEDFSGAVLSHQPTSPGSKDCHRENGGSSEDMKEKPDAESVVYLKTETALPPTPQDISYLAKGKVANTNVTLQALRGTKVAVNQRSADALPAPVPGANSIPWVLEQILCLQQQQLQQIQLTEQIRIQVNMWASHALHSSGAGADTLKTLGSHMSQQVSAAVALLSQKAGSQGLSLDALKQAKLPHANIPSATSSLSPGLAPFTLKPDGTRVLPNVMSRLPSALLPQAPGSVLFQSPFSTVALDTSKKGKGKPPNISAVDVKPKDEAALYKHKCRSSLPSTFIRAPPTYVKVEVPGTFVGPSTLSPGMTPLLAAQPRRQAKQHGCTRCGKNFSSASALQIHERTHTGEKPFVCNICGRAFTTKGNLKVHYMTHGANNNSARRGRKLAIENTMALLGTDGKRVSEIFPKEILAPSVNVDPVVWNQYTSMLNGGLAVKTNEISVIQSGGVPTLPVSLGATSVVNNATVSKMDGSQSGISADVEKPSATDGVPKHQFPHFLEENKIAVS
GGGCGAAA: 0.0887
AATAATGA: 0.347
AATGTAAA: 0.275
ATCCATGG: -0.082
TTACTAAA: 0.271
AACCTAGT: -0.0318
AGTCTTAT: 0.237
GTAATGAC: 0.135

Sample 4 — mode: inhibitor; tested at: 20 µM; quantity: inhibition
Target: Replicase polyprotein 1ab, nsp13 helicase (rep, Severe acute respiratory syndrome coronavirus 2, UniProt P0DTD1)
O=C(O)C1=CCCN(CCON=C(c2ccccc2)c2ccccc2)C1: 6.96%
COc1ccc(CNC(=O)c2cc(-c3cncc(C)c3)ncc2-c2nccs2)nc1OC: 4.42%
CN(C)CCCCC(=O)Nc1ccc(NC(=S)NC(=O)c2ccc(C(C)(C)C)cc2)cc1: 67.2%
Clc1ccc(N/N=C(\c2ccccc2)c2ccccn2)nc1: 4.12%
CCn1c(-c2nonc2N)nc2c(C#CC(C)(C)O)ncc(OC[C@H]3CCCNC3)c21: 15.7%
CC(NCCC(c1ccccc1)c1ccccc1)c1ccccc1 (centres unmarked): -1.31%
FC(F)(F)c1ccc(CNc2ccc(Cc3c[nH]c4ncccc34)cn2)cc1: 3.49%
Nc1nc(Cl)nc2c1ncn2[C@@H]1O[C@H](CO)[C@@H](O)[C@@H]1F: -1.25%
Cc1c(N(C)CS(=O)(=O)O)c(=O)n(-c2ccccc2)n1C: 1.7%
CO[C@@H](C(=O)N1Cc2[nH]nc(NC(=O)c3ccc(N4CCN(C)CC4)cc3)c2C1)c1ccccc1: 4.88%
O=C(O)c1ccccc1S: 7.51%
N#Cc1ccc2[nH]c(O)c(-c3ccc(CN4CCOCC4)cn3)c2c1: 4.16%
COc1ccc(CCNCc2ccc(OCc3ccc(Cl)nc3)c(OC)c2)cc1OC: -0.54%
Cc1c(OCC(F)(F)F)ccnc1C[S+]([O-])c1nc2ccccc2[nH]1 (centres unmarked): 3.92%
CCCSc1nc(N[C@@H]2C[C@H]2c2ccc(F)c(F)c2)c2nnn([C@@H]3C[C@H](OCCO)[C@@H](O)[C@H]3O)c2n1: 3.13%
COc1cc([C@@H]2c3cc4c(cc3[C@@H](O[C@@H]3O[C@@H]5CO[C@@H](C)O[C@H]5[C@H](O)[C@H]3O)[C@H]3COC(=O)[C@H]23)OCO4)cc(OC)c1OP(=O)(O)O: 2.51%
COC(=O)N1CCN(Cc2cccc(NC(=O)Nc3ccc(C)nc3)c2F)CC1: 2.8%
FC(F)(F)c1cccc(C2=CCN(CCc3ccc4ccccc4c3)CC2)c1: -2.66%
CCc1cc(-c2n[nH]c(C)c2-c2ccc3c(c2)OCCO3)c(O)cc1O: 2.47%
CNC(=O)c1ccccc1Sc1ccc2c(/C=C/c3ccccn3)n[nH]c2c1: -23.2%
Cn1c(=O)c2c(ncn2CCO)n(C)c1=O: -0.65%
Cc1nc2c(c(=O)[nH]1)CSCC2: 6.74%
Cc1nc(C)c(Cl)c(O)c1Cl: 0.63%
CC(C(=O)O)c1ccc2c(c1)[nH]c1ccc(Cl)cc12 (centres unmarked): 16.3%

Mixed results — read-out: enzyme activity; tested at: 10 µM
Target: Replicase polyprotein 1ab, 3C-like proteinase (rep, Middle East respiratory syndrome-related coronavirus, UniProt K9N7C7)
CCC(C)SSc1ncc[nH]1 (centres unmarked)  inhibition (inhibitor; MERS-CoV): 62.5%
O=[N+]([O-])C(Br)(CO)CO  inhibition: 14%

For quick reference, copied from above (sample 2):
CGAGTGAC: 0.0231
AGTTGACC: 0.0684
ATGACACG: 0.0118
